# Published values gathered from unrelated publications.
# A part holds a random share of what one study measured. Positions count from the first letter of the parent shown.

# Block 1
# Target: Interferon regulatory factor 7, full length, phosphomimetic (IRF7, Homo sapiens, UniProt Q92985, residues 1-503, S101K/S471D/S472D/S475D/S476D/S477D/S483D/S484D/S487D)
# Method: protein-binding microarray
# Form: double-stranded DNA, one strand shown
# Matrix: in vitro
# Tested at: 250 nM
# Notes: 60-bp whole probe
# With: salmon DNA 0.4 mg/ml
# Baseline: random background probes
# Reading: higher = stronger binding
# Shared flanks, not repeated: GCCTAGCAC … GTCTTGATTCGCTTGACGCTGCTG
# Construct (chain): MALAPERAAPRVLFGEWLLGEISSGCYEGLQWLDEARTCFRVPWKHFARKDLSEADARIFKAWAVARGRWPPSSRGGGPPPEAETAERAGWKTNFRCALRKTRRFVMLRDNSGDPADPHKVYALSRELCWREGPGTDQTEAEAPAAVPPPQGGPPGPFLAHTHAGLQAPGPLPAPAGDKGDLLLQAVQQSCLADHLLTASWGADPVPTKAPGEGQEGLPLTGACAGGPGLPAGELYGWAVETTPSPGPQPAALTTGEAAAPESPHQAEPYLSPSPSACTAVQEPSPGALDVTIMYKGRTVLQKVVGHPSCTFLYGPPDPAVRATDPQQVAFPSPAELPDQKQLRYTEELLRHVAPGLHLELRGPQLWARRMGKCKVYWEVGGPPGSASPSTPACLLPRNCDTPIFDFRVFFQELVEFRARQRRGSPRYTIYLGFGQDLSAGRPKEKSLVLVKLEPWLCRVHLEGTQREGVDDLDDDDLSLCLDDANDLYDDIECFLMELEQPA
Oligonucleotide,log fluorescence
GACGGTATCGTGACTGGGGACGTGCTA,-0.333 z-score
TACGGACTGGGTCTCGGGACGTGCTAG,-0.296 z-score
GACGACCTCAGACTGGAGACGTGCTAG,-0.17 z-score
TTAGATTTCCGTTTCGATTAGTGCTAG,5.61 z-score
GACGATATCAGTTCCGAGACGTGCTAG,0.211 z-score
TTAGATTTCCGTCTCGATTAGTGCTAG,1.14 z-score
TTAGGTCTCGGTTTCGGTGAGTGCTAG,7.03 z-score
TTAGATCTAAGTATCGATTAGTGCTAG,1.34 z-score
TTAGATTTGGGGTTTCGATTAGTGCTA,5.62 z-score
GACGGTCTCGATATCGGGACGTGCTAG,2.6 z-score
GACGGACTGGACTATCGTGACGTGCTA,-0.684 z-score
TTTTCTCTGGTTCTTGCTTGGTGCTAG,2.36 z-score
GACGGTCTCGGTCTCTGGACGTGCTAG,0.995 z-score
TTAGATTTCAGTTCCCATTAGTGCTAG,1.61 z-score
GTACATCTCTCTTAAATAGGGTGCTAG,0.842 z-score
CTAGGTTTCGGTTTCGGTTAGTGCTAG,15 z-score
TCATACTTCCCACTGGTACTGTGCTAG,0.659 z-score
GACGGTTTCGATTATCGGGACGTGCTA,10.3 z-score
GACGGCATCCTACTGCTGACGTGCTAG,-0.618 z-score
GACGATTTCAGTATCGAAACGTGCTAG,0.959 z-score
TTAGGTATCAGGTTTCGGTTAGTGCTA,6.87 z-score
GACGGACTCCTTCTCCTGACGTGCTAG,0.000475 z-score
TTAGATATCGGGTTTCGATTCGTGCTA,10.8 z-score
GACGGTTTCGGACTTGGGACGTGCTAG,3.46 z-score
AGTTCTCTAGAAATTCCCACGGTGCTA,0.746 z-score

# Block 2
# Target: Histone acetyltransferase KAT6A, winged helix 2, GST fusion (KAT6A, Homo sapiens, UniProt Q92794, residues 85-181)
# Method: protein binding microarray
# Form: double-stranded DNA, one strand shown
# Matrix: in vitro
# Tested at: not given
# Notes: 8-mer, flanks averaged, mean of 2 arrays, mostly near background
# Baseline: not given
# Reading: higher = stronger binding
# Construct (chain): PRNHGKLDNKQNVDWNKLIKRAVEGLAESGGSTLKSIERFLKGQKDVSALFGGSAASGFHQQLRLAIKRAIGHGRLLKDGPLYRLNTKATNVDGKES
Oligonucleotide,E-score
CAACGCCA,-0.0858
ACCCGAGG,0.0455
AGCAATGA,-0.0317
CGCACCGC,0.147
CTAAAATC,-0.0154
TAAACCCA,0.0214
GATGACGC,-0.00322
CATTTGAC,-0.0522
ATTGCTGG,0.0567
AACGCCTG,-0.0183
AGTCCCGA,0.00653
AATGGGAG,-0.15
CGCGTGAG,0.24
CTACTCCA,-0.0889
AGTCTCCG,0.00985
CTTTTGGC,0.144
ATAGTTAG,0.00831
CACGGGAG,-0.0376
CGACCCCA,0.0555
CAGCGCCC,0.17
GCAACTAA,0.196
AAAAATCT,0.0579
CACCCACA,0.18
CGGCTTAA,0.257
GCATCTTA,-0.00357

# Block 3
# Target: RNA binding protein fox-1 homolog 2, RRM domain, GST-SBP tag (RBFOX2, Homo sapiens, UniProt O43251-10, residues 100-194)
# Method: RNA Bind-n-Seq
# Form: RNA
# Matrix: in vitro
# Tested at: 365 nM
# Notes: natural RNA segment, single round, ends assumed
# Baseline: no-protein control
# Reading: higher = stronger binding
# Residues (chain): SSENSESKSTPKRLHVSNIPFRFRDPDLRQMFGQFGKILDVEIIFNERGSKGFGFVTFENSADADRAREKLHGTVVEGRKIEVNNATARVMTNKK
Oligonucleotide,RBNS enrichment (R)
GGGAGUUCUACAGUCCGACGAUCUCCAUGUAGUUCCGACUGCAGCAGUGUCUUAACUGAGUAGUCCAUUAAAGUACAAGUUGAUCAUUGCCCCAAGGCUCCUUUCCUUUCUGCUUGUAUUCCCUGGAUACUCUUGGAAUUCUCGGGUGCCAA,0.338
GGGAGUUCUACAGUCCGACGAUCCACGUGCGCCUUCAUAGCCCAGCCAAGGGCAUGCAGGCAGGGUGUGCUGCCUGAGAUGGCACCUCCCUUUCAGCCAUUCUUCAAGAAUGGGCCACACACAGCUAGAAGUCUGGAAUUCUCGGGUGCCAA,0.272
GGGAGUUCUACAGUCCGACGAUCAAGCAACACCGCCCAGCCCUGCUCCAGGCCCCUGCACUCCGCCCACCCCUACCCUGGCUGCACCUGAGCUUGCUGCCCCUGGGGAUGUUGCCCAGUGGCUGUGCACUGCUUGGAAUUCUCGGGUGCCAA,2.48
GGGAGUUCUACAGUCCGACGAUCCUCCUCUUAUUUUAUGAUAAAAGCAAAUGUGGCCUUCUCAGUAUCAUUCGAUUGCUAUUUGAGACUUUUAAAUUAAGGUAAAGGCUGCUGGUGUUGGUACCUGUGGAUUUUGGAAUUCUCGGGUGCCAA,0.287
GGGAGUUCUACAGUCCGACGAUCAAACCACUCCAGCUGUUAAUCUGUUUGCGCCUCCAUCCAUGGACUUGUUUCUGUUCUUUUCCAUCCACUUUGUACUCAUUUGUUUUCAUUAAAUUUUGCAUUUAUUUUGAUGGAAUUCUCGGGUGCCAA,9.38
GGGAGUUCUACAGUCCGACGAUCUUUCCACUCUUUUCAGUCCUUCAUGUUAAAGAUUUAGACACCACAUACAACUGGUAAAGGACGUUUUCUUGAGAGUUUUAACUAUAUGUAAACAUUGUAUAAUGAUAUGGUGGAAUUCUCGGGUGCCAA,0.385
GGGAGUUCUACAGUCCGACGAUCCAUCCAUCAAGGAUUUCCAUAGGGGUGACUGGUGCCCACCCAAGACUGCACCAGUGCCUGCUCAUUGAGGAGAGUAACUGCUGGCCAGGCAGAAAGAAUAUGGGCUCUGCUGGAAUUCUCGGGUGCCAA,0.469
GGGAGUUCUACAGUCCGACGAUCCCUCUGGGACCCCAGCUGCUCUAAGCCCAGGAUCUCUUUCCCCAAGGACCCAGCCCUCGCCUCUGCGAGAAUGAACAUAUUUGAUAGAUUUUUCUUAACAAGUUAGAAAAUGGAAUUCUCGGGUGCCAA,0.364
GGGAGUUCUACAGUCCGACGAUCCACUGAUGACUGCGGCUGUCUCGACAGUCAUCUUCACAUCUGCUCCCCUCCACAGUCACUAGAGGGCUCUCUAAUGCUUUCUAAAGGAGCCACCACCUGCUCCGUGGCCAUGGAAUUCUCGGGUGCCAA,0.499
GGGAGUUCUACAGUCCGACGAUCUAGCUGGGGCAGGGGCAGAGGACAGCGGCUGUAGCUGUCACAUCUCUGCGACUCAUCCUGUACCGUGUGUUGGCCAGAAGCUGCAUCCUAAGCCCCCUCCCCAACAAGAUUGGAAUUCUCGGGUGCCAA,0.329
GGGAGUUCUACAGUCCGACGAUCACCUCUGCUGUGUGUCUCUGCCAAUCUGCUGGGCUGGUCCCUCUCAUUUUUACCAGUCUGAGUGACAGGUCCCCUUCGCUCAUCAUUCAGAUGGCUUUCCAGAUGACCAGUGGAAUUCUCGGGUGCCAA,0.396
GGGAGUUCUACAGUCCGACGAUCCCCCUCCUUUUUAUUUUUUCCUUUAAAAACAUUUCAGUUAAAUUAAGCUACUGAUUUGGAUUUGUUUUAUCGUAUCCUAAAGUCUUUGUUGUUGAAAUGAAAGGUAUUUUUGGAAUUCUCGGGUGCCAA,0.536

# Block 4
# Target: Ras GTPase-activating protein-binding protein 1, RRM domain (G3BP1, Homo sapiens, UniProt Q13283)
# Chain of UniProt Q13283 (whole entry, looked up): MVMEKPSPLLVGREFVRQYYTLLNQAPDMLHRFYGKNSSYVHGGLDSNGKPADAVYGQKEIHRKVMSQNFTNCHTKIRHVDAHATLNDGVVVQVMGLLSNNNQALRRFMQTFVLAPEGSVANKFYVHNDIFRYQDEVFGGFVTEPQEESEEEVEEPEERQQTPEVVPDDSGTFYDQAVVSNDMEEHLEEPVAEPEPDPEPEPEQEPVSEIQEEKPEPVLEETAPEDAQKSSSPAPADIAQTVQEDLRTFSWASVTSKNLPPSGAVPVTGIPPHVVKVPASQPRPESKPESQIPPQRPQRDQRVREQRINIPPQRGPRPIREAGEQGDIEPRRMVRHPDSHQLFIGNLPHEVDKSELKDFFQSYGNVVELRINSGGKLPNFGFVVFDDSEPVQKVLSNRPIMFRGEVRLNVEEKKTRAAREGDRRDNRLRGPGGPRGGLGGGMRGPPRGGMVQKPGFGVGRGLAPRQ
# Method: RNA Bind-n-Seq
# Form: RNA
# Matrix: in vitro
# Tested at: 1 µM
# Notes: whole 134-nt RNA, ends assumed
# With: 150 mM KCl
# Baseline: input library
# Reading: higher = stronger binding
Oligonucleotide,log2 enrichment
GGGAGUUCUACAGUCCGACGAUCUCAAGUCCUGUGCUACACAUCGUAUGUACCGAAUCGGGAAAGGGUGGGAAAGGGAAAGUAUUAUGUUACGCCGUUCGGAUCUGCACUUCCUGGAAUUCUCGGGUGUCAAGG,0.811
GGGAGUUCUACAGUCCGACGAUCAGUCCUGUGCUACACAUCGUAUGUACCGAAUCAAACCCCCCCAAACCCAAACCCAAAAAAGUAUUAUGUUACGCCGUUCGGAUCUGCACUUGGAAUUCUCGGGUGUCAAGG,-0.248
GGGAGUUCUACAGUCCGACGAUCCACAGACAACACGCACCCACACAGAAAAAGAGGGAAGGGGUUGGGAUGGGGACAGGGUGCACAGCAGGGCGGGGUAGGACCCCAGCCCCUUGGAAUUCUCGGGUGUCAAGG,-0.252
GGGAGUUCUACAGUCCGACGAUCUAACUUUAGAGGAGGAUCUGAUGGAUAUGGCAGUGGACGUGGAUUUGGGGAUAGCUAUAAUGGGUAUGGAGGAGGACCUGGAGGUGGCAAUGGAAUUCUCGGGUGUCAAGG,-0.256
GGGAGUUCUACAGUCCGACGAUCUAACUUUAGAGGAGGAUCUGAUGGAUAUGGCAGUGGACGUGGAUUUGGGGAUGGCUAUAAUGGGUAUGGGGGAGGACCUGGAGGUGGCAAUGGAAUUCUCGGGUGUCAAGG,-0.415
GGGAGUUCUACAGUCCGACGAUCCUCAAGUCCUGUGCUACACAUCGUAUGUACCGAAUCGGAAGGGAAGGAAGGGGAAAGUAUUAUGUUACGCCGUUCGGAUCUGCACUUCCAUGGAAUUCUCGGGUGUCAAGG,-0.0501
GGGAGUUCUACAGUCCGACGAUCAAGUCCUGUGCUACACAUCGUAUGUACCGAAUCGGGAAAAAGGGAAAGGGAAAGGGAAAGUAUUAUGUUACGCCGUUCGGAUCUGCACUUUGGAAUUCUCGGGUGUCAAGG,0.403
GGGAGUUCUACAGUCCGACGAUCGUCCUGUGCUACACAUCGUAUGUACCGAAUCGGGUUUUUGGGAAAAAGGGUUUUUGGGAAAGUAUUAUGUUACGCCGUUCGGAUCUGCACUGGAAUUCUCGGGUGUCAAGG,-0.0179
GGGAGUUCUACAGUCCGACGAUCUGUGCUACACAUCGUAUGUACCGAAUCGGGGUUUUUUUGGGGUUUUUGGGGUUUUUUUGGGGAAAGUAUUAUGUUACGCCGUUCGGAUCUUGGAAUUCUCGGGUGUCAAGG,0.851
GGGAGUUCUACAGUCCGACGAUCUCAAGUCCUGUGCUACACAUCGUAUGUACCGAAUCGGAAAGGAGGUUUUUUUGGAAAGUAUUAUGUUACGCCGUUCGGAUCUGCACUUCCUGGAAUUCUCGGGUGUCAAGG,-0.278
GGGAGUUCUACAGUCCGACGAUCCACAGACAACACGCACCCACACAGACACAGAGGGAAGGUGUUGGGAUGGGGACAGGGUGCACAGCAGGGCGGGGUAGGACCCCAGCCCCUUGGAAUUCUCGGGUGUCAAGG,-0.116
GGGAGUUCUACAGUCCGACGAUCGUCCUGUGCUACACAUCGUAUGUACCGAAUCGGGGAAAAAGGAAAAAGGGAAAAAGGGGAAAGUAUUAUGUUACGCCGUUCGGAUCUGCAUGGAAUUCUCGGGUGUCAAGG,0.0504
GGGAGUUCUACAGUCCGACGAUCCCUCAAGUCCUGUGCUACACAUCGUAUGUACCGAAUCGGCGGCGGGGCGGGGAAAGUAUUAUGUUACGCCGUUCGGAUCUGCACUUCCAGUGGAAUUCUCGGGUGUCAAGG,-0.211
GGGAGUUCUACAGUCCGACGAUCCCUCAAGUCCUGUGCUACACAUCGUAUGUACCGAAUCGGGGUGGGUGGUGGGGAAAGUAUUAUGUUACGCCGUUCGGAUCUGCACUUCCAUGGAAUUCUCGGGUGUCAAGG,0.124

# Block 5
# Target: CCNA2, cyclin fold, Cln2 fusion (human)
# Method: yeast growth competition, sequencing
# Matrix: yeast
# Notes: strong parent motif
# Baseline: not given
# Reading: higher = stronger binding
# Starting sequence: RB1 docking peptide (human); PKPLKKLRFDIEG
Substitution,normalised enrichment score
F9P,-0.283
I11T,0.118
I11S,1.82
L4N,1.84
L7S,1.32
K5G,-0.22
P3H,0.33
K6I,1.45
K5M,0.365
E12M,1.39
I11C,0.981
K5A,0.561
K5P,0.564
D10T,0.919
L7C,0.815
F9R,0.228
